Experimental data of several laboratories.
Parts stem from different laboratories: compare values within a part only.

Sample 1
Target: Fragile X messenger ribonucleoprotein 1, C-terminal low-complexity region (Fmr1, Mus musculus, UniProt P35922)
Method: RNA Bind-n-Seq
Molecule type: RNA
Medium: in vitro
Concentration: 200 nM
Notes: whole 134-nt RNA, ends assumed
With: 150 mM KCl
Reference: input library
Direction: higher = stronger binding
Measurement: log2 enrichment
All sequences stand within: GGGAGUUCUACAGUCCGACGAUC … UGGAAUUCUCGGGUGUCAAGG
UCCUCAAGUCCUGUGCUACACAUCGUAUGUACCGAAUCGGUGGGUGGUGGGGAAAGUAUUAUGUUACGCCGUUCGGAUCUGCACUUCCAG: 0.522
AGUCCUGUGCUACACAUCGUAUGUACCGAAUCGGGAAAAAGGGAAAAAGGAAAAAGGAAAGUAUUAUGUUACGCCGUUCGGAUCUGCACU: -0.669
CUGUGCUACACAUCGUAUGUACCGAAUCGGGGUUUUUUUGGGGAAAAAAAGGGGUUUGGGGAAAGUAUUAUGUUACGCCGUUCGGAUCUG: -0.528
CAAGUCCUGUGCUACACAUCGUAUGUACCGAAUCGGGAAAGGGUUUGGGUUUGGGAAAGUAUUAUGUUACGCCGUUCGGAUCUGCACUUC: 0.883
UGGGAGGUGGAUUUUGUUUAUUUUUUUAGCUCAUUUCCAGGGGUGGGAAUUUUUUUUUAAUAUGUGGCAUGAAUAAAGUUGUUUUUGAAA: 0.403
GUCCUGUGCUACACAUCGUAUGUACCGAAUCGGGGUUUGGGGUUUUUGGGGUUUGGGGAAAGUAUUAUGUUACGCCGUUCGGAUCUGCAC: 0.919
CACAGACAACACGCACCCACACAGACAUAGAGGGAAGGGGUUGGGAUGGGGACAGGGUGCACAGCAGGGCGGGGUAGGACCCCAGCCCCU: 1.2
UUGCCACUCUAAAUUCAGAAGAGGAGAGCGACCCUCCAACCUACAAGGAUGCCUUCCCUCCACUUCCUGAGAAAGCUGCUUGCCUGGAAA: -0.116

Sample 2
Target: Sal-like protein 4, full length isoform A (SALL4, Homo sapiens, UniProt Q9UJQ4, residues 1-1053)
UniProt Q9UJQ4, sequence (whole entry, looked up): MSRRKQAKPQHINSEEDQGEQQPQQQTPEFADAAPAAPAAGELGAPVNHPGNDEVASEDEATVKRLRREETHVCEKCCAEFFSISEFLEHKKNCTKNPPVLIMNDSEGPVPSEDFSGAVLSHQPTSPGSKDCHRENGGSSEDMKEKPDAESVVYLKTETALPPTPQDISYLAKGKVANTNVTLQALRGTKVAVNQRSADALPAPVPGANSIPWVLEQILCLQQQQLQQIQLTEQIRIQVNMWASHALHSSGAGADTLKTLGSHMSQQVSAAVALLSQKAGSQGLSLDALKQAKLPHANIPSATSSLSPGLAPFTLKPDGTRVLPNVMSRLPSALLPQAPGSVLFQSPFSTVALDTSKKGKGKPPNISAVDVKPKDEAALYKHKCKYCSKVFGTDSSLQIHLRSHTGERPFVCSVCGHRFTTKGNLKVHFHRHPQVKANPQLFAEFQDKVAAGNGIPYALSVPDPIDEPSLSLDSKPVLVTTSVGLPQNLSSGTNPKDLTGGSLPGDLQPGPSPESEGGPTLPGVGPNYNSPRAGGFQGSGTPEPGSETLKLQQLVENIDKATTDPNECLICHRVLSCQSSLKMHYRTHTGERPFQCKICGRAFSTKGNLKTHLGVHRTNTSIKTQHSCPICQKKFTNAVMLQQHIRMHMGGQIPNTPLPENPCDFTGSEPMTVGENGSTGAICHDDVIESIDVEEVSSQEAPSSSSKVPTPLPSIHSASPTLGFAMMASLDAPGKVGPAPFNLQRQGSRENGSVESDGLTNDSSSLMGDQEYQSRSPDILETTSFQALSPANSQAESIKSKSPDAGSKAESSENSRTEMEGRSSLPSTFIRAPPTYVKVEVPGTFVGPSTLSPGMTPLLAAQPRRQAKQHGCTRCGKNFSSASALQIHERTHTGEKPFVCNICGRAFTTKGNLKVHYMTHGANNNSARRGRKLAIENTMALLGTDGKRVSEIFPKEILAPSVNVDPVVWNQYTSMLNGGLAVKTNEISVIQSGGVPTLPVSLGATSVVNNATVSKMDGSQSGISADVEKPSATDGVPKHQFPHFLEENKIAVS
Method: universal PBM
Molecule type: double-stranded DNA, one strand shown
Medium: in vitro
Concentration: 600 nM
Notes: 8-mer, flanks averaged, mean of replicates
Direction: higher = stronger binding
Measurement: E-score
ATTGTGTA: 0.237
ACAGCCAG: -0.165
ATGGGACG: -0.237
ACCTGCGT: -0.16
CCCGTCAC: -0.311
GTCTAGAA: 0.168
CACACGTG: -0.0838
ATTCCTTA: 0.0922

Sample 3
Target: Hepatocyte nuclear factor 3-alpha (Foxa1, Mus musculus, UniProt P35582, residues 1-468, full length assumed)
Method: EMSA with sequencing
Molecule type: double-stranded DNA, one strand shown
Medium: in vitro
Concentration: 10 and 20 nM
Notes: whole designed probe, mean of two concentrations, ends assumed
Reference: negative control set to 0
Direction: higher = stronger binding
Measurement: normalised bound fraction
All sequences stand within: GTGAGCGGTGCCCATTGATGGGGAAC … TTTCACTGGGATCGTGGGGAC
Residues (chain): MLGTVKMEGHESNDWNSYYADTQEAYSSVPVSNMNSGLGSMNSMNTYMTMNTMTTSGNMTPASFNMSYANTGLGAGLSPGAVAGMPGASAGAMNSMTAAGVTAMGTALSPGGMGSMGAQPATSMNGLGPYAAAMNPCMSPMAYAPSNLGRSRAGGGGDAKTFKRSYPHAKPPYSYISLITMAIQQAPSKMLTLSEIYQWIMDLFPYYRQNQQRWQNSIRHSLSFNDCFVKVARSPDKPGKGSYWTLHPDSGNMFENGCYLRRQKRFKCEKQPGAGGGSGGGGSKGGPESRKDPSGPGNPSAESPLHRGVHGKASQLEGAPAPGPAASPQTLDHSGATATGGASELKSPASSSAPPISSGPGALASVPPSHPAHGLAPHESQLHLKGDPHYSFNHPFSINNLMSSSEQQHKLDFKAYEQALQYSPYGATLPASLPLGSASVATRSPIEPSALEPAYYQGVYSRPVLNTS
AATATTGCTTCCATACGTTCTGTTGCTTAAGTTCACCTCTGCCTCTAGGGCTCACACTTGTATTCCTTTTGCCTGGACTGCTTTTTCCCCAAATATTTACACAGCTGGCTACTTGTTCTTGTCACTCAAACACACTTGAGTATCACTCTCAGAGATACTTTGTTGAGTTCCTCATCTAATACATCCACTACAT: 0.311 ratio
AGTTTATTATTTGCTTAAAAACAAATTAATATAATTGCATTGCTTATAAAATGTAACCTTACTTGACCGCTAATGTTGACCTAGTTCTTTTTTCTGTTTACTTTGTTTTGAATTTACTGATAATATGAACCTTGGAAAATCCATCAATACAAAGAGTTTCTGTTTCTATTGATTTGTCAGAGAGGTGTTCTGA: 0.49 ratio
GTCCAGAAACCTGTCACACTACTAATTTCAACCCCTTGGCCAGAGCTCAGGCACATGGCTGCACCTAGCTGCAAGGGAAGCTAGGAAGGTCTGTGTTTATTCTGCACAGCCATGAACTCAGCTAAAAGCCAATCAAATATTTGTAAATAAACAAAACAATTTTAGATAGTGATGTATCCTGGGAAAGAACAAA: 0.45 ratio
AAAGGCTTCATAATGTTTTTGAGGTGTTTTGTAGGCTAGTTTTTGGGTTTGTTTATTTTAAAAAAAAAACTCTTTAATGTTTTTCAGAAGATAAGTAATCTAGAACAATTATACCTTTTTCTTAATGAACGGAAAGAATCAAGGGTGTCCCTAAGGCTGTGGTGAATATAGGAGCAACTGAGGTGAGGGCCAG: 0.325 ratio
GGAAGTCTGCAATGCTTTGAACAGCAGGGTGTGGGAGGAAGTGTTGGCCCTACTCACCCTGCCTGACCTCCCTGGGCTGTGACGTCAGAGCTCTGTTTACATAGCTGAGGGACTGGGAATGCTGGAGTGGAGGAAGGAGGTGATGAATGATTCAGGAGGACACACAACATCCCTGCTTTTCTTTCCTGCTGGC: 0.4 ratio

Further values, each from its own experiment
CASSSDWFY — binding (HLA class I histocompatibility antigen, A alpha chain, allele A*80:01 (Homo sapiens, UniProt P04439); peptide-MHC binding; peptide; concentration not given): inactive

For quick reference, copied from above (sample 2):
ACCTGCGT: -0.16
CCCGTCAC: -0.311
GTCTAGAA: 0.168
